Measurements pooled from the literature.
Numbered parts are unrelated; each lists some results of a single study. Substitutions count along the parent as printed.

Sample 1
Target: Histone acetyltransferase KAT6A, both winged helices, GST fusion (KAT6A, Homo sapiens, UniProt Q92794, residues 1-181)
Technique: protein binding microarray
Form: double-stranded DNA, one strand shown
Sample: in vitro
Tested at: not given
Setting: 8-mer, flanks averaged, mean of 2 arrays, mostly near background
Relative to: not given
Reading: higher = stronger binding
Target sequence (chain): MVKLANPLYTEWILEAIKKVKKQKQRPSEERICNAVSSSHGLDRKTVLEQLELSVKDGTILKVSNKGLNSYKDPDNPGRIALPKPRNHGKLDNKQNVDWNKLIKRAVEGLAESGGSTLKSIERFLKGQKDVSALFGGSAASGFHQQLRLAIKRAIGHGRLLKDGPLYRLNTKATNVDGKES
With `CGAGGCCC` the E-score was 0.000305.
For `ACTGTAAT`, the E-score was -0.0661.
`CTGACCGC` has an E-score of 0.196.
`CAATGAAA` gave an E-score of -0.185.
For `CCAAGTTA`, the E-score was -0.141.
For `ACCGCAGA`, the E-score was 0.112.
`TACCGGTA` gave an E-score of 0.308.
The E-score of `AATAAGTG` is reported as -0.17.
With `ACTATATA` the E-score was -0.0602.
`CGCAAGAA` has an E-score of 0.213.
The E-score of `ACCGGCCG` is reported as 0.318.
`CCACTGCA` gave an E-score of -0.0802.
`ATACTGTA` gave an E-score of -0.0541.
`GCTACTTA` gave an E-score of -0.148.
`AAGAGTTG` gave an E-score of -0.145.
For `GTAGTTTA`, the E-score was -0.0194.
With `AGTTCCGA` the E-score was 0.137.
For `CGGTCCAC`, the E-score was 0.105.
The E-score of `GCCGTTAA` is reported as 0.238.
`AGAGCGCG` gave an E-score of 0.289.

Sample 2
Target: CCNB1, cyclin fold, Cln2 fusion (human)
Technique: yeast growth competition, sequencing
Sample: yeast
Setting: strong parent motif
Relative to: not given
Reading: higher = stronger binding
Starting sequence: MASTL docking peptide (human); PMIAKNLMCELDE
`PMIAKNSMCELDE [L7S]` — result for “normalised enrichment score”: 0.137.
For `PMIAKNLMCKLDE [E10K]`, “normalised enrichment score” read 0.392.
For `PMIAKNLMCEQDE [L11Q]`, “normalised enrichment score” read 0.207.
`PMIAKNLMWELDE [C9W]`: “normalised enrichment score” 2.39.
Under “normalised enrichment score”, `PMIEKNLMCELDE [A4E]` is recorded as 1.53.
`PMIAKNLVCELDE [M8V]` — result for “normalised enrichment score”: 0.554.
For `PMIAKNLMFELDE [C9F]`, “normalised enrichment score” read 2.82.
`PMIAKNLMCEWDE [L11W]`: “normalised enrichment score” 1.05.
`PMIANNLMCELDE [K5N]`: “normalised enrichment score” 0.533.
`PMIAKNLMAELDE [C9A]` — result for “normalised enrichment score”: 2.98.
Under “normalised enrichment score”, `PMIAKNLMMELDE [C9M]` is recorded as 2.11.
Under “normalised enrichment score”, `PMITKNLMCELDE [A4T]` is recorded as 1.06.
`PMIAKNVMCELDE [L7V]` — result for “normalised enrichment score”: -0.286.
For `PMIAKNLMQELDE [C9Q]`, “normalised enrichment score” read 2.33.
Under “normalised enrichment score”, `PCIAKNLMCELDE [M2C]` is recorded as 2.48.
For `PMIAKNLMCELIE [D12I]`, “normalised enrichment score” read 0.713.
`PMIAKNLMCESDE [L11S]` — result for “normalised enrichment score”: 0.14.
`PMIAKNLACELDE [M8A]`: “normalised enrichment score” 0.25.
`PMICKNLMCELDE [A4C]` — result for “normalised enrichment score”: 2.79.
`PMAAKNLMCELDE [I3A]`: “normalised enrichment score” 0.375.
`PMIAKNLMCELHE [D12H]` — result for “normalised enrichment score”: 0.774.
Under “normalised enrichment score”, `PMIAKNLMLELDE [C9L]` is recorded as 2.09.
Under “normalised enrichment score”, `PMIAKNLMYELDE [C9Y]` is recorded as 2.28.
`PMGAKNLMCELDE [I3G]` — result for “normalised enrichment score”: 0.47.
For `PMIAKVLMCELDE [N6V]`, “normalised enrichment score” read 0.364.

Sample 3
Target: Interferon regulatory factor 5, full length, phosphomimetic (IRF5, Homo sapiens, UniProt Q13568-2, residues 1-514, K96S/S451D/S453D/S456D/S462D)
Technique: protein-binding microarray
Form: double-stranded DNA, one strand shown
Sample: in vitro
Tested at: 250 nM
Setting: 60-bp whole probe
Together with: salmon DNA 0.4 mg/ml
Relative to: random background probes
Reading: higher = stronger binding
Shared flanks, not repeated: GCCTAGCAC … GTCTTGATTCGCTTGACGCTGCTG
The log fluorescence of `TTGGATTTCAGTTTCGATTAGTGCTAG` is reported as 10.2 z-score.
With `GACGGTATTGGTCTCGGGACGTGCTAG` the log fluorescence was 0.479 z-score.
`TCAATTTTTACTTTCTGACTGTGCTAG` gave a log fluorescence of 3.04 z-score.
For `GACGATTTAGGGTATCGAGACGTGCTA`, the log fluorescence was 0.406 z-score.
`CTCCTAATAAATATGAGACTGTGCTAG` gave a log fluorescence of -0.0434 z-score.
`GACATCCCCAGTCTCATATTGTGCTAG` gave a log fluorescence of -0.385 z-score.
With `TCAGCTTCCTAATTCTCACTGTGCTAG` the log fluorescence was 0.651 z-score.
For `TTAGATCTCAGTCTCGACTAGTGCTAG`, the log fluorescence was 0.252 z-score.
The log fluorescence of `TTAGGTTTCGGTTTCGGTTGGTGCTAG` is reported as 11.6 z-score.
`AACGGACTGGACTTTCGGGACGTGCTA` has a log fluorescence of 4.55 z-score.
`TTAGGTTTCGGGACTGGGTTCGTGCTA` gave a log fluorescence of 5.87 z-score.
`CCTGGCTCCATGGAATTTTTGTGCTAG` gave a log fluorescence of -0.651 z-score.
For `GACGCTTTCAGTATCGAGACGTGCTAG`, the log fluorescence was 5.97 z-score.
The log fluorescence of `GACGGACTGGGACTGGCGACGTGCTAG` is reported as -0.75 z-score.
`GACGGTTTCCGACTGGGGACGTGCTAG` gave a log fluorescence of 0.303 z-score.
`TCAATCTTAGATATTAAACTGTGCTAG` gave a log fluorescence of 0.71 z-score.
With `TTGGGTATCGGGTATCGGTTAGTGCTA` the log fluorescence was 6.11 z-score.
The log fluorescence of `TCAATTTCCACTTTCTTACTGTGCTAG` is reported as 2.22 z-score.
`TTAGGTATCGGTCTCGGTTGGTGCTAG` gave a log fluorescence of 6.61 z-score.
The log fluorescence of `CACGGACTGGGGACTGGGGACGTGCTA` is reported as -0.879 z-score.
`TTAGGTTCCGGTTTAGGTTAGTGCTAG` has a log fluorescence of 2.57 z-score.
With `CTAGGACTGCTTATCCTTTAGTGCTAG` the log fluorescence was -0.597 z-score.
`CTTGCTTCCTAATTCTCTTTGTGCTAG` gave a log fluorescence of 0.31 z-score.
The log fluorescence of `GAGGGTATCGGGACTGGGGACGTGCTA` is reported as 0.535 z-score.
For `GACGGACTGGGTATCGGGCCGTGCTAG`, the log fluorescence was 0.0758 z-score.

Sample 4
Target: RNA binding protein fox-1 homolog 2, RRM domain, GST-SBP tag (RBFOX2, Homo sapiens, UniProt O43251-10, residues 100-194)
Technique: RNA Bind-n-Seq
Form: RNA
Sample: in vitro
Tested at: 365 nM
Setting: natural RNA segment, single round, ends assumed
Relative to: no-protein control
Reading: higher = stronger binding
Residues (chain): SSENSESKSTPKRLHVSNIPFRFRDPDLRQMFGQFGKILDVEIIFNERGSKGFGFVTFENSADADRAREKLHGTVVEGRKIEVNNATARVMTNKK
For `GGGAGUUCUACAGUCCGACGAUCGAAAAAAUACUUGUCUUAUGUUGUUUUAGCAAGGGAGUUCAGCCAAGUGACAGGAAAGAUUCCCUGGUCUGCAUCUAAACAUUAGUCAACAGAAGGAAAAGGCUCUUUUCUGGAAUUCUCGGGUGCCAA`, “RBNS enrichment (R)” read 1.05.
`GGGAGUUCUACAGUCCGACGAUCAAGAUCCUGUCCUGAUUCUCAAAAAUUAUUUUCUCUGUAUGAUUAAAAGUUUAUUCCAUUUAUUUUAGUUUGUGUUUACUUGAUUUUGAGGAAGAAAAUAUUUGACUUUGUGGAAUUCUCGGGUGCCAA`: “RBNS enrichment (R)” 0.587.
`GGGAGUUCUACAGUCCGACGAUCAGUUCAACCAUUGUGGAAGUCAGUGUGGCGAUUCCUCAGGGAUCUAGAACUGGAAACACCAUUUGACCCAGCCAUCCCAUUACUGGGUAUAUACCCAAAGGACUAUAAAUUGGAAUUCUCGGGUGCCAA`: “RBNS enrichment (R)” 0.239.
`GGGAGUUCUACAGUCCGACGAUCGGAGCGGGACUGCAACAAGCAAUGCCAGAUAACUGAGAAAUCAUGUUCUUUGUGGACUAUUUCAGACAACCAGGUUCCGACAGUCCAGCCCAGAACUUUUCCUUCUCAUUUGGAAUUCUCGGGUGCCAA` — result for “RBNS enrichment (R)”: 0.337.
`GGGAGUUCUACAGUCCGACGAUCCUGGUAUCUGAAUGUUGAUUCCUCAUUUAGGAGUUCAGCAUUAAUUUCCAAAAUUUUCAUGGGGCUUGUGGCAACACGGGCCGUGAAUCUGUGUAUAAAAUUUACUGGCCUGGAAUUCUCGGGUGCCAA`: “RBNS enrichment (R)” 0.277.
For `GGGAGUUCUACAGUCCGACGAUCGACUUACCUGCGCAGAUCUGGAAGCCUUGAACUCGGAGUGCUGACUCUGCUACAUGGUACAGCUACCGCUAGACCUACAACUUAUGUACACAGUUGAUUUUGAUGUAUUUUGGAAUUCUCGGGUGCCAA`, “RBNS enrichment (R)” read 0.54.
`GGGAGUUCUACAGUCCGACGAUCUCGUUACUUUCUGGCGAAUUUAACAUAAGCCUUGGGCACCUGUCACAAUUUUCUAAAGAUGGUUUGGGCUUCCUUACCUCCCAGUGUGAAGUGUUUCAAAUGUCUGUCAGUGGAAUUCUCGGGUGCCAA` — result for “RBNS enrichment (R)”: 0.358.
Under “RBNS enrichment (R)”, `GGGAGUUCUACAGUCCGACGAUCUUCCCCUCACUCCUCCCCUCCUUCGCUCGCUCAACCUCUUUUGUUCAGUAUGUGUAACUUGAAGCUAAUUUGUACUACUGGAUAUCUGACUGGAGCCACAGAUACAGAAUUGGAAUUCUCGGGUGCCAA` is recorded as 0.591.
`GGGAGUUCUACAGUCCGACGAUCCCAACGUGCUGGGAUUACAGGUGUGAGCCACUACGCCCCGGCCCAACUGGAUGGUUUUUGAUUGAAGCCUAGAACAUCUGUAGAGACAAACUCUACCCAGUCUUUUCUAGUGGAAUUCUCGGGUGCCAA`: “RBNS enrichment (R)” 0.314.
For `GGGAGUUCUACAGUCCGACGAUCGUAUCAGGUUGCUGGGGAGUUUCCACUCUUCUCUGGUGAUUGUUCCUUCCCUCCCUUCCUCUCCCACCAUGCGAUGAGCAUCCUUUCAGGCCAGUGUCUGCAGAGCCUCAUGGAAUUCUCGGGUGCCAA`, “RBNS enrichment (R)” read 0.642.
`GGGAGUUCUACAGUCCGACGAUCAGAGACAGGACCAGAGAGGCGAUGUCACACAGCCAGUGAUGUCAGGACAUAAAUUCAGAGUGGCUGGCCCUGAAUAAUGCCAGGCUGGGCAGCGAGAGGACAGGCUAUGGUGGAAUUCUCGGGUGCCAA` — result for “RBNS enrichment (R)”: 1.06.
`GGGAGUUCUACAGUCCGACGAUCUCGAUAAACUAACUACUGUAGAAGAAGUGAACACUUACCUGGAGGCUCACCUUGCAGAACCAGUGACAAUCUUAUGAGUAUAAUGAACACUCAGCCAGGCCUGUCAUGAUUGGAAUUCUCGGGUGCCAA` — result for “RBNS enrichment (R)”: 0.357.

Repeated from above (sample 3):
The log fluorescence of `TTGGATTTCAGTTTCGATTAGTGCTAG` is reported as 10.2 z-score.
`CTTGCTTCCTAATTCTCTTTGTGCTAG` gave a log fluorescence of 0.31 z-score.
`CCTGGCTCCATGGAATTTTTGTGCTAG` gave a log fluorescence of -0.651 z-score.
`TTAGGTTTCGGGACTGGGTTCGTGCTA` gave a log fluorescence of 5.87 z-score.
`GACGGTTTCCGACTGGGGACGTGCTAG` gave a log fluorescence of 0.303 z-score.
With `GACGGTATTGGTCTCGGGACGTGCTAG` the log fluorescence was 0.479 z-score.
For `GACGCTTTCAGTATCGAGACGTGCTAG`, the log fluorescence was 5.97 z-score.
`GACATCCCCAGTCTCATATTGTGCTAG` gave a log fluorescence of -0.385 z-score.
`TCAATTTTTACTTTCTGACTGTGCTAG` gave a log fluorescence of 3.04 z-score.
